Measured values collected from several papers.
Numbered parts are unrelated; each lists some results of a single study. “And” joins repeats or separate records; there may be more than shown.
Sequence of UniProt Q13153 (whole entry, looked up): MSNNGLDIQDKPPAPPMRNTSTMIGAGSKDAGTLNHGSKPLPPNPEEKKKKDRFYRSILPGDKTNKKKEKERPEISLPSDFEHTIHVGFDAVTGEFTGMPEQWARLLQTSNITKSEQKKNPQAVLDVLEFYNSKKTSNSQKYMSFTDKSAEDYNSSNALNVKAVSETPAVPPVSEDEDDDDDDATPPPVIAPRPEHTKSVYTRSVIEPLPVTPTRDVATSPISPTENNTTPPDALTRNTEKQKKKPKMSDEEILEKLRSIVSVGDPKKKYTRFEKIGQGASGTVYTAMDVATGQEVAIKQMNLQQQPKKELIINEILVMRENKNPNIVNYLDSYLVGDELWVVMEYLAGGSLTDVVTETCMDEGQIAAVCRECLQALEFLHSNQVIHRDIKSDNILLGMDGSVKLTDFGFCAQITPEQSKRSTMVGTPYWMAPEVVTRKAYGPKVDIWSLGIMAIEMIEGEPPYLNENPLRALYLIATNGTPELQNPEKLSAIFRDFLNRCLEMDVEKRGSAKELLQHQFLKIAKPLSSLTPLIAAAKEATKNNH
Sequence of UniProt Q06418 (whole entry, looked up): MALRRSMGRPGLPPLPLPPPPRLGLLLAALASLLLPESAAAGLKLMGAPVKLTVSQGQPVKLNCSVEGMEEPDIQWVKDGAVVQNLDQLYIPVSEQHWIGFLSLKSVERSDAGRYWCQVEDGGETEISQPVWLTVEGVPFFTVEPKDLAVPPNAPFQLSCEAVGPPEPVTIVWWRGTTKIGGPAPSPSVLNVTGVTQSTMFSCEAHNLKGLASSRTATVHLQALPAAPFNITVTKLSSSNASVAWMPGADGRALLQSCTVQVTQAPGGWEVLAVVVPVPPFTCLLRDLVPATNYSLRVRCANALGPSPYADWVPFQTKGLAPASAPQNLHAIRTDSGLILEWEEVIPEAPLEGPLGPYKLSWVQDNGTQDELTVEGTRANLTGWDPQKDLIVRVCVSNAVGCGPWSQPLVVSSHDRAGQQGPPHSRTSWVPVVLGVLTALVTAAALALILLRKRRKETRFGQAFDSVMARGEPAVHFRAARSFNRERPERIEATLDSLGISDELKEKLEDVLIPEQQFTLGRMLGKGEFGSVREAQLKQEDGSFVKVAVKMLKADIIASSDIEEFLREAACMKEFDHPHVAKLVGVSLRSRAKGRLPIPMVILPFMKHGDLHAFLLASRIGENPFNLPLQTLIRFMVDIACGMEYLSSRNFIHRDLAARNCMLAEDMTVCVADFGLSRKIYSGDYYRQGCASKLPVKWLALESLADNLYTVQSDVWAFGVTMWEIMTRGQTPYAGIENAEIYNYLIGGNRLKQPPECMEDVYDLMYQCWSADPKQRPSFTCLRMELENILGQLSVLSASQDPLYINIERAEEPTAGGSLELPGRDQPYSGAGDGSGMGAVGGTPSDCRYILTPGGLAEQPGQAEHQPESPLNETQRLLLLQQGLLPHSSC
Sequence of UniProt P07947 (whole entry, looked up): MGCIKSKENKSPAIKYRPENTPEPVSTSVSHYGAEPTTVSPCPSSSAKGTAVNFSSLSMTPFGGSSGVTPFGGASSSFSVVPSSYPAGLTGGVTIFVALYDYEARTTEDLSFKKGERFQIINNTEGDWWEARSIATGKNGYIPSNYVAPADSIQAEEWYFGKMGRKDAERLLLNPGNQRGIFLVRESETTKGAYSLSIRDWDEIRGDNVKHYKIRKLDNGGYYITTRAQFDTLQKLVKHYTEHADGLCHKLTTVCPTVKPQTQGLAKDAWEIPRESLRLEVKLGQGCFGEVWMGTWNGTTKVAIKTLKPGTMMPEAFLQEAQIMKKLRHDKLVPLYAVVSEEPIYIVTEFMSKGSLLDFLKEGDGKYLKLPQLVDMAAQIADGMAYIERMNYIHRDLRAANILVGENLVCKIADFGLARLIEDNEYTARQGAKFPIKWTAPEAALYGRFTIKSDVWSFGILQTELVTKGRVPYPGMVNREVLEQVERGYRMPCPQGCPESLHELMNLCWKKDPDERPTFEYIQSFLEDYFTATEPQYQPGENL
Sequence of UniProt P19525 (whole entry, looked up): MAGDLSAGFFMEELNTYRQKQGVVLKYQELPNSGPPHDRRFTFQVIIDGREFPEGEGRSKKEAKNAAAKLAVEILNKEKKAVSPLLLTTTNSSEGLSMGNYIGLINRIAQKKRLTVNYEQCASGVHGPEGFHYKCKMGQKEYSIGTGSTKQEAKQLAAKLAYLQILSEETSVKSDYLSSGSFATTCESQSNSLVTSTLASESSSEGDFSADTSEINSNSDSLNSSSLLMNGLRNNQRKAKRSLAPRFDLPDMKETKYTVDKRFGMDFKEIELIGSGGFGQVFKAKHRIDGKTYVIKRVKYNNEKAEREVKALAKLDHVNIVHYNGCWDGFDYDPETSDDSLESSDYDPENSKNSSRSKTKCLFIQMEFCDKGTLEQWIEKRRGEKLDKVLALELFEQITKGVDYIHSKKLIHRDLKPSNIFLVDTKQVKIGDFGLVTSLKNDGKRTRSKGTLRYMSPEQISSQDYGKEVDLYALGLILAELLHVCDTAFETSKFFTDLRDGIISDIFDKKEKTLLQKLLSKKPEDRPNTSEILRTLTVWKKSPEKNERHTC
Sequence of UniProt Q96J92 (whole entry, looked up): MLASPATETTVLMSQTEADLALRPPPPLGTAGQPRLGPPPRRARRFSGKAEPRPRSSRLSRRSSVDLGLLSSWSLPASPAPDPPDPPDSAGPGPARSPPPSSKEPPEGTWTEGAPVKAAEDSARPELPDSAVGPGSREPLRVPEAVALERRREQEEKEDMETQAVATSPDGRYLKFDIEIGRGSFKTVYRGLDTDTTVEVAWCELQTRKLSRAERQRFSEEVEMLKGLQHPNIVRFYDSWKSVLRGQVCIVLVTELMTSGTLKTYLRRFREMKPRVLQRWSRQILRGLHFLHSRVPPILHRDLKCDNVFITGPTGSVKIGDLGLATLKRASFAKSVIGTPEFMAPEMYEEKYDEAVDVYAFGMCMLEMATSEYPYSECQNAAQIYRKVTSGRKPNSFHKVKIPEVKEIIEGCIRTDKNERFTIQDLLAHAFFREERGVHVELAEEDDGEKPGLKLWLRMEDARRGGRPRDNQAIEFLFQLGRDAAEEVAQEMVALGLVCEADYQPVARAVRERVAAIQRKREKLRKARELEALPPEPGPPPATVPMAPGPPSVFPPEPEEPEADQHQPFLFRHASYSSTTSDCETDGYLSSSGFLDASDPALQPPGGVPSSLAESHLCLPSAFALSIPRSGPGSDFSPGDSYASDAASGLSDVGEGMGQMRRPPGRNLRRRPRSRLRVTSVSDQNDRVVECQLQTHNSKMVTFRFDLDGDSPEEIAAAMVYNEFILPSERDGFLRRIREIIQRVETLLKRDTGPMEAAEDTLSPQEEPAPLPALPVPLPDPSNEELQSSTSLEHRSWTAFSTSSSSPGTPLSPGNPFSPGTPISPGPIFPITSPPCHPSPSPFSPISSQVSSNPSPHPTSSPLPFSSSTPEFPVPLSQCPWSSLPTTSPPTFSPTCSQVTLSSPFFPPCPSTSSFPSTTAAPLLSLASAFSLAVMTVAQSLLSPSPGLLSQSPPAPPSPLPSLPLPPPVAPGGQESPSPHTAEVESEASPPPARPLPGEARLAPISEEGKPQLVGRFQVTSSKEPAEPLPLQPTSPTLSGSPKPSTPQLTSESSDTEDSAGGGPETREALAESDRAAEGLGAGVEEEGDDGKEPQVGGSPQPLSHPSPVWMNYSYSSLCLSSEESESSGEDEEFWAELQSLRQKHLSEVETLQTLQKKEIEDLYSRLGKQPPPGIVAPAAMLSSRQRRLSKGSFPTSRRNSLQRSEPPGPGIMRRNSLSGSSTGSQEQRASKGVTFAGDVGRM
Sequence of UniProt O15146 (whole entry, looked up): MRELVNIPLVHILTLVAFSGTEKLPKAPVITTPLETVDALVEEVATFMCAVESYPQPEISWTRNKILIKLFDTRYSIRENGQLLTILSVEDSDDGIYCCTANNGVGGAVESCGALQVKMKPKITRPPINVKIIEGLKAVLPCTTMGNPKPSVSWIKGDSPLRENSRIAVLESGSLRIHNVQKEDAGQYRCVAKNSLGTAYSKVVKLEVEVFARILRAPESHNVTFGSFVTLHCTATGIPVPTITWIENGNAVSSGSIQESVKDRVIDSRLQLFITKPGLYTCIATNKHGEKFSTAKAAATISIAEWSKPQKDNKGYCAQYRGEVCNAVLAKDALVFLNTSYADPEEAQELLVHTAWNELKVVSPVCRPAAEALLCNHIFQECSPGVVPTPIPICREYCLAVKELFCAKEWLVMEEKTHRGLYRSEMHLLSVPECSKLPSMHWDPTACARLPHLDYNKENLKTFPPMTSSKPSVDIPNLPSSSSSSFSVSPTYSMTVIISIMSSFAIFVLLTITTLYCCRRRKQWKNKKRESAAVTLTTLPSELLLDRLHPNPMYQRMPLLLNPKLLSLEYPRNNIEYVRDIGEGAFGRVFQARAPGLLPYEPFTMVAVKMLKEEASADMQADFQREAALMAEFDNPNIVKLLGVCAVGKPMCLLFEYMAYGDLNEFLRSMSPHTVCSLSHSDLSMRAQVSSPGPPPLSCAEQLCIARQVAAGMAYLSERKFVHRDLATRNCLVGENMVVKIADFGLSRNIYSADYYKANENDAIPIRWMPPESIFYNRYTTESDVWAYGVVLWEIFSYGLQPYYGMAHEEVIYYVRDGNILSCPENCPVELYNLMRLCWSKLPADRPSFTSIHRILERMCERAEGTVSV
Sequence of UniProt P11309 (whole entry, looked up): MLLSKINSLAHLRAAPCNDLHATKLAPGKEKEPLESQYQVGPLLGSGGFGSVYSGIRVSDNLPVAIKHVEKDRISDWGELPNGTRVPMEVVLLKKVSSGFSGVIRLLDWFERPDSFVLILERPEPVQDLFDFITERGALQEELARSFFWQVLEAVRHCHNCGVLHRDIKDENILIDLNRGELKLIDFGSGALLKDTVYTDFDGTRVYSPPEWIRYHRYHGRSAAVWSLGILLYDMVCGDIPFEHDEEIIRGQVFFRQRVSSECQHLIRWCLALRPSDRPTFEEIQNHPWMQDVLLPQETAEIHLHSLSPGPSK

Study 1
Species: human
Sample: microsomes or S9
Tested at: 2 µM
Time: 0.5 h
The remaining compound of CCC[C@@H]1CN(c2ncnc3sccc23)C[C@H]1C(=O)O is reported as 39.9%.
CNC1=C(c2cc(C)cc(C)n2)C(=O)C(c2ccccc2Cl)O1 (centres unmarked) gave a remaining compound of 58.8%.
With COc1ccc(Cl)cc1NC(=O)c1cc2c(OC)ccc(OC)c2n1C the remaining compound was 70.9%.
With Cc1nnc2n1CCC(N(C)S(=O)(=O)c1cn(C)cn1)CC2 (centres unmarked) the remaining compound was 70%.
CCN(C(=O)COC(=O)c1cc2c(C)nn(-c3ccccc3)c2s1)c1cccc2ccccc12 has a remaining compound of 9.76%.
For CCC(C(=O)Nc1ccc(C(=O)O)cc1NC(=O)C(CC)c1ccccc1)c1ccccc1 (centres unmarked), the remaining compound was > 99%.
COc1ccccc1NC(=O)Cn1c(=O)c2ccccc2n2nnc(-c3ccccc3)c12 has a remaining compound of 83.3%.

Study 2
Cell line: HaCaT
Tested at: 100 µM
Time: 18 h
For CC(C)(C)NCC(O)c1ccc(O)c(CO)c1 (centres unmarked), the viability was 91%.
With CNNCc1ccc(C(=O)NC(C)C)cc1 the viability was 112%.
COc1c(C)c2c(c(O)c1C/C=C(\C)CCC(=O)O)C(=O)OC2 has a viability of 134%.
With COc1cc(Nc2c(C#N)cnc3cc(OCCCN4CCN(C)CC4)c(OC)cc23)c(Cl)cc1Cl the viability was 93.8%.

Study 3
Compound: CC(=O)O/N=C1/C(c2c(O)[nH]c3cc(Br)ccc23)=Nc2ccccc21
Read-out: enzyme activity
Action: inhibitor
Tested at: 0.5 µM
Baseline: control
It gave 131% for remaining activity (Tyrosine-protein kinase Tec (TEC, Homo sapiens, UniProt P42680)).
For Tyrosine-protein kinase JAK1 (JAK1, Homo sapiens, UniProt P23458): remaining activity read 104%.
For Activin receptor type-1-like (ACVRL1, Homo sapiens, UniProt P37023): remaining activity read 107%.
Muscle, skeletal receptor tyrosine-protein kinase (MUSK, Homo sapiens, UniProt O15146) — remaining activity: 68.5%.
Ephrin type-B receptor 3 (EPHB3, Homo sapiens, UniProt P54753) — remaining activity: 94.2%.
Serine/threonine-protein kinase Sgk2 (SGK2, Homo sapiens, UniProt Q9HBY8) — remaining activity: 92.8%.
The remaining activity was 72.7% (Calcium/calmodulin-dependent protein kinase kinase 1 (CAMKK1, Homo sapiens, UniProt Q8N5S9)).
It gave 96.8% for remaining activity (Dual specificity protein kinase CLK2 (CLK2, Homo sapiens, UniProt P49760)).
The remaining activity was 98.6% (Vascular endothelial growth factor receptor 1 (FLT1, Homo sapiens, UniProt P17948)).
For Tyrosine-protein kinase JAK2 (JAK2, Homo sapiens, UniProt O60674): remaining activity read 105%.
It gave 93.9% for remaining activity (Maternal embryonic leucine zipper kinase (MELK, Homo sapiens, UniProt Q14680)).
It gave 79.8% for remaining activity (Serine/threonine-protein kinase pim-1 (PIM1, Homo sapiens, UniProt P11309)).
The remaining activity was 92.7% (Serine/threonine-protein kinase PAK 4 (PAK4, Homo sapiens, UniProt O96013)).
It gave 114% for remaining activity (Receptor tyrosine-protein kinase erbB-2 (ERBB2, Homo sapiens, UniProt P04626)).
For Tyrosine-protein kinase Fes/Fps (FES, Homo sapiens, UniProt P07332): remaining activity read 115%.
For Serine/threonine-protein kinase PAK 1 (PAK1, Homo sapiens, UniProt Q13153): remaining activity read 93.6%.
Protein kinase C zeta type (PRKCZ, Homo sapiens, UniProt Q05513) — remaining activity: 92.2%.
Serine/threonine-protein kinase PAK 6 (PAK6, Homo sapiens, UniProt Q9NQU5) — remaining activity: 74.8%.
Dual specificity tyrosine-phosphorylation-regulated kinase 1A (DYRK1A, Homo sapiens, UniProt Q13627) — remaining activity: 111%.
The remaining activity was 24.7% (Cyclin-dependent kinase 5, with p35 (CDK5, Homo sapiens, UniProt Q00535)).
Tyrosine-protein kinase receptor TYRO3 (TYRO3, Homo sapiens, UniProt Q06418) — remaining activity: 69.8%.
Ribosomal protein S6 kinase alpha-3 (RPS6KA3, Homo sapiens, UniProt P51812) — remaining activity: 91.9%.
Tyrosine-protein kinase Yes (YES1, Homo sapiens, UniProt P07947) — remaining activity: 46.4%.
Protein kinase C theta type (PRKCQ, Homo sapiens, UniProt Q04759) — remaining activity: 72%.
The remaining activity was 77% (Mitogen-activated protein kinase kinase kinase 20 (MAP3K20, Homo sapiens, UniProt Q9NYL2)).

Study 4
Structure (SMILES): O=C1NC(c2ccccn2)Sc2ccccc21 (centres unmarked)
Read-out: cell-free assay
Technique: competition with immobilised ligand
Tested at: 1 µM
For MAP kinase-interacting serine/threonine-protein kinase 1 (MKNK1, Homo sapiens, UniProt Q9BUB5): remaining binding read 82%.
It gave 91% for remaining binding (Interferon-induced, double-stranded RNA-activated protein kinase (EIF2AK2, Homo sapiens, UniProt P19525)).
It gave 87% for remaining binding (Serine/threonine-protein kinase TNNI3K (TNNI3K, Homo sapiens, UniProt Q59H18)).
Receptor-type tyrosine-protein kinase FLT3 (FLT3, Homo sapiens, UniProt P36888, D835V) — remaining binding: 100%.
Serine/threonine-protein kinase WNK4 (WNK4, Homo sapiens, UniProt Q96J92) — remaining binding: 100%.
It gave 81% for remaining binding (Cyclin-dependent kinase 2 (CDK2, Homo sapiens, UniProt P24941)).
For Serine/threonine-protein kinase PAK 1 (PAK1, Homo sapiens, UniProt Q13153): remaining binding read 96%.

Study 5
Compound: O=C(COc1ccccc1P(=O)(O)O)NCC(F)(F)c1cccc(F)c1
Cell line: human islets
Technique: qPCR
Tested at: concentration not given
Setting: unit not given
Baseline: low glucose control
It gave 0.779 and 2.09 and 0.994 and 0.922 for mRNA level (item: BRAF; together with: high glucose (20 mM)).
item: ALDH1A3; together with: glucolipotoxic conditions — mRNA level: 7.72 and 3.77 and 2.87 and 5.2.
The mRNA level was 0.638 and 1.21 and 1.07 and 0.639 (item: NFATC1; together with: glucolipotoxic conditions).
For item: PIN1; together with: high glucose (20 mM): mRNA level read 1.15 and 0.953 and 1.03 and 0.806.

Single results of other studies
Cc1[nH]nc2ccc(-c3cncc(OC[C@@H](N)Cc4ccccc4)c3)cc12: “log10 relative viability” -0.805 (HH; CCK-8; 2 µM, 48 h; baseline: untreated control).
For CCOC(=O)[C@@H]1CSCC(=O)N[C@H](CC)C(=O)N(C)[C@@H](C)C(=O)N[C@H](CC(C)C)C(=O)N2CCC[C@H]2C(=O)N(CC(C)C)CC(=O)N[C@H](CC(C)C)C(=O)N(C)[C@@H](C)C(=O)N[C@@H](CC(C)C)C(=O)N1C, the logD was 2.02 (hydrocarbon/water).
CCOC(=O)c1cnc2ccc(-c3cncc(NS(=O)(=O)c4ccccc4)c3)cn12 — result for “log10 relative viability”: -0.627 (HH; CCK-8; 2 µM, 48 h; baseline: untreated control).
